Experimental data from different studies.
Protocols differ between the studies behind these lines.
Technique: steady-state kinetics
B1: LipK (Streptomyces, UniProt D4QF24); chain MTVGAGGKTSADADPLMLVRAIADADRRAAHALNLVPSENRISPLASLPLASDFYNRYFFNTDGDPLFWEFRGGEDIAHIEALGAAALRRMASARYCNVRPISGMSAMILTVAALSPPGSTVVSVDQNSGGHYATPALLGRLGRRSRLLNCKDGEVDESELAEVLAPGDVALVYVDVQNCVRVPDFRRMSDVIREVSPGTRLYVDASHYLGLVLGGLLANPLDCGADAFGGSTHKSFPGPHKGVIFTNAEDVDESLRSAQFDLVSSHHFAETLALSLAALEVEDRMGDYARATNDNARRLAGALADAGFRVYGDSATGYTDTHQVWVELDGVAAAYALSNRLAEGGIRVNLQSSMPGMSGVHLRLGSNEVTFEGAGPQAIEELAGALVTARERALGPRTVHEIRGRFGAPFYTDPEKLKVEAGL
B2: tsaM1 F253S/H255G/M230N/R216A/S234V/S257H/T232I/Y220I (Comamonas testosteroni, UniProt P94679); chain MFIRNCWYVAAWDTEIPAEGLFHRTLLNEPVLLYRDTQGRVVALENRCCHRSAPLHIGRQEGDCVRCLYHGLKFNPSGACVEIPGQEQIPPKTCIKSYPVVERNRLVWIWMGDPARANPDDIVDYFWHDSPEWRMKPGYIHYQANYKLIVDNLLDFTHLAWVHPTTLGTDSAASLKPVIERDTTGTGKLTITRWYLNDDMSNLHKGVAKFEGKADAWQIIQWSPPALLRNDIGVAPTGTGAPEGRRVPEAVQSRGTHIQTPETETTSHYWFCQARNFDLDDEALTEKIYQGVVVAFEEDRTMIEAHEKILSQVPDRPMVPIAADAGLNQGRWLLDRLLKAENGGTAP
B3: cyc1 F95M (Streptomyces coelicolor, UniProt Q9K499); chain MHAFPHGTTATPTAIAVPPSLRLPVIEAAFPRQLHPYWPKLQETTRTWLLEKRLMPADKVEEYADGLCYTDLMAGYYLGAPDEVLQAIADYSAWMFVWDDRHDRDIVHGRAGAWRRLRGLLHTALDSPGDHLHHEDTLVAGFADSVRRLYAFLPATWNARFARHFHTVIEAYDREFHNRTRGIVPGVEEYLELRRLTFAHWIWTDLLEPSSGCELPDAVRKHPAYRRAALLSQEFAAWYNDLCSLPKEIAGDEVHNLGISLITHHSLTLEEAIGEVRRRVEECITEFLAVERDALRFADELADGTVRGKELSGAVRANVGNMRNWFSSVYWFHHESGRYMVDSWDDRSTPPYVNNEAAGEK
B4: enzyme R228K (Arabidopsis thaliana, UniProt O82390); chain MNARALLCSSNIHSLYTSNRPPEKTSSSRSLRNLKPSPKSLRVWIYPRNRSSVFRVLVRSSDKSESSNSYYVEGDKVSGNNDVVSDSPSSIVLPWWEEFPKRWVIVLLCFSAFLLCNMDRVNMSIAILPMSAEYGWNPATVGLIQSSFFWGYLLTQIAGGIWADTVGGKRVLGFGVIWWSIATILTPVAAKLGLPYLLVVRAFMGVGEGVAMPAMNNILSKWVPVQEKSRSLALVYSGMYLGSVTGLAFSPFLIHQFGWPSVFYSFGSLGTVWLTLWLTKAESSPLEDPTLLPEERKLIADNCASKEPVKSIPWRLILSKPPVWALISCHFCHNWGTFILLTWMPTYYHQVLKFNLMESGLLSVFPWMTMAISANAGGWIADTLVSRGFSVTNVRKIMQTIGFLGPAFFLTQLKHIDSPTMAVLCMACSQGTDAFSQSGLYSNHQDIAPRYSGVLLGLSNTAGVLAGVLGTAATGHILQHGSWDDVFTISVGLYLVGTVIWNLFSTGEKIID
B5: TRIB2 (Homo sapiens, UniProt Q92519); chain MNIHRSTPITIARYGRSRNKTQDFEELSSIRSAEPSQSFSPNLGSPSPPETPNLSHCVSCIGKYLLLEPLEGDHVFRAVHLHSGEELVCKVFDISCYQESLAPCFCLSAHSNINQITEIILGETKAYVFFERSYGDMHSFVRTCKKLREEEAARLFYQIASAVAHCHDGGLVLRDLKLRKFIFKDEERTRVKLESLEDAYILRGDDDSLSDKHGCPAYVSPEILNTSGSYSGKAADVWSLGVMLYTMLVGRYPFHDIEPSSLFSKIRRGQFNIPETLSPKAKCLIRSILRREPSERLTSQEILDHPWFSTDFSVSNSAYGAKEVSDQLVPDVNMEENLDPFFN
B6: COMT (Homo sapiens, UniProt P21964); chain MPEAPPLLLAAVLLGLVLLVVLLLLLRHWGWGLCLIGWNEFILQPIHNLLMGDTKEQRILNHVLQHAEPGNAQSVLEAIDTYCEQKEWAMNVGDKKGKIVDAVIQEHQPSVLLELGAYCGYSAVRMARLLSPGARLITIEINPDCAAITQRMVDFAGVKDKVTLVVGASQDIIPQLKKKYDVDTLDMVFLDHWKDRYLPDTLLLEECGLLRKGTVLLADNVICPGAPDFLAHVRGSSCFECTHYQSFLEYREVVDGLEKAIYKGPGSEAGP
B7: Mj-MAT W387F (Methanocaldococcus jannaschii, UniProt Q58605); chain MRNIIVKKLDVEPIEERPTEIVERKGLGHPDSICDGIAESVSRALCKMYMEKFGTILHHNTDQVELVGGHAYPKFGGGVMVSPIYILLSGRATMEILDKEKNEVIKLPVGTTAVKAAKEYLKKVLRNVDVDKDVIIDCRIGQGSMDLVDVFERQKNEVPLANDTSFGVGYAPLSTTERLVLETERFLNSDELKNEIPAVGEDIKVMGLREGKKITLTIAMAVVDRYVKNIEEYKEVIEKVRKKVEDLAKKIADGYEVEIHINTADDYERESVYLTVTGTSAEMGDDGSVGRGNRVNGLITPFRPMSMEAASGKNPVNHVGKIYNILANLIANDIAKLEGVKECYVRILSQIGKPINEPKALDIEIITEDSYDIKDIEPKAKEIANKFLDNIMEVQKMIVEGKVTTF
UniProt P06757, sequence (whole entry, looked up): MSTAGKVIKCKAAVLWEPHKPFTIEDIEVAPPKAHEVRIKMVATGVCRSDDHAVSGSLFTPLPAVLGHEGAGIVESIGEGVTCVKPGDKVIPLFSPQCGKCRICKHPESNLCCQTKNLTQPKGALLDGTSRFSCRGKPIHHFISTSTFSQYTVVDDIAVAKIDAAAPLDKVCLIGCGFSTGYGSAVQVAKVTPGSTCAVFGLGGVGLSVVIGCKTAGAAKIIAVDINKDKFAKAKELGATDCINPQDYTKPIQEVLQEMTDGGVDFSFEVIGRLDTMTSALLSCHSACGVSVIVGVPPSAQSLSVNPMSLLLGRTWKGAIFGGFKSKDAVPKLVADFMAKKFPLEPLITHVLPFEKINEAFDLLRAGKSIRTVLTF
UniProt Q5JTZ9, sequence (whole entry, looked up): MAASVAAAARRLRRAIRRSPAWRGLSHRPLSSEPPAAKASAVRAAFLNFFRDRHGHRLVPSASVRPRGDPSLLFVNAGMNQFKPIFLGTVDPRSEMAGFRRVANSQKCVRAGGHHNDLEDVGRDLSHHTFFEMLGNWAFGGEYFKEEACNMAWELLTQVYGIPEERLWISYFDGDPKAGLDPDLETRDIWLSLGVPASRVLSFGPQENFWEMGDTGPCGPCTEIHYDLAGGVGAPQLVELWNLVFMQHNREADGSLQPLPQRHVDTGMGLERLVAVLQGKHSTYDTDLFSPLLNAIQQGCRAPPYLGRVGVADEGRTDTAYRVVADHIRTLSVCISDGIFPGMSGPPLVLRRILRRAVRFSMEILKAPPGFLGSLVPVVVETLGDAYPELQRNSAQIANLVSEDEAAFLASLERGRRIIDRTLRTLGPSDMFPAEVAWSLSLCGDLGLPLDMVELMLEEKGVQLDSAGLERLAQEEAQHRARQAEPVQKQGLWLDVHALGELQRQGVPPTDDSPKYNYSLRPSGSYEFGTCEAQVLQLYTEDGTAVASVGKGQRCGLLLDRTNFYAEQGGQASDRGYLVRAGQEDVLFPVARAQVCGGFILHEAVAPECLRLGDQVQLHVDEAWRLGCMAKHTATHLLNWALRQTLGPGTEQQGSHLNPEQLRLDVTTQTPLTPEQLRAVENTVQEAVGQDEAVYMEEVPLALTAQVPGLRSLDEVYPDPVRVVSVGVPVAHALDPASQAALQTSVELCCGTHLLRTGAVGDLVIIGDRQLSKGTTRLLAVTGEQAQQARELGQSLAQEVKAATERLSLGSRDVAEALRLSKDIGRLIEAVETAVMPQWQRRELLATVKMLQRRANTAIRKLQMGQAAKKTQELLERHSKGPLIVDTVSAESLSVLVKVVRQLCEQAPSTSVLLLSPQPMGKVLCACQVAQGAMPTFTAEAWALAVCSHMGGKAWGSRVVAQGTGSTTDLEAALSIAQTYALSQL
UniProt P19337, sequence (whole entry, looked up): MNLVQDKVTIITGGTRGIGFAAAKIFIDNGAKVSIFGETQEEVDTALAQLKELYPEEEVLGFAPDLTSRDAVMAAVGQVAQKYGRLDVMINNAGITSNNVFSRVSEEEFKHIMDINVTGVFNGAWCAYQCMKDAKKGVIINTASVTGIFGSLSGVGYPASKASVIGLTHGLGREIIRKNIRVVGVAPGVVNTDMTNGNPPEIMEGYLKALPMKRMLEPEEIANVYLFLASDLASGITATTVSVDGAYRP

For `BaiA2 (Clostridium scindens, UniProt P19337)`, the Km was 84 µM (NC(=O)c1ccc[n+]([C@@H]2O[C@H](COP(=O)(O)OP(=O)(O)OC[C@H]3O[C@@H](n4cnc5c(N)ncnc54)[C@H](OP(=O)(O)O)[C@@H]3O)[C@@H](O)[C@H]2O)c1; pH 8.7, 37 °C, cofactor varied, with: glycocholic acid 1.4 mM).
With `B1 (LipK)` the Km was 29200 µM (O=C[C@H]1O[C@@H](n2ccc(=O)[nH]c2=O)[C@H](O)[C@@H]1O; with: L-Thr 30 mM).
With `B2` the Km was 20 µM (COc1cc(C(=O)O)ccc1O; apparent, with: NADH 1 mM).
With `enzyme (Salvia miltiorrhiza, UniProt A0A4Y5RRG0)` the Km was 18.2 µM (Oc1cc(O)c2c(c1)O[C@H](c1ccc(O)c(O)c1)[C@H](O)[C@H]2c1c(O)cc(O)c2c1O[C@H](c1ccc(O)c(O)c1)[C@H](O)C2; pH 5, 28 °C).
`enzyme (Rattus norvegicus, UniProt P06757)` has a Km of 42 µM (CC(C)CCO; pH 7.3, 37 °C).
`B3 (cyc1 F95M)` gave a Km of 0.275 µM (CC(C)=CCC/C(C)=C/CC/C(C)=C/CO[P@@](=O)(O)OP(=O)(O)O; pH 6.5, 30 °C, with: MgCl2 10 mM).
`B4 (enzyme R228K)` gave a Km of 103 µM (O=P(O)(O)O; pH 6.5, 25 °C, apparent, not purified).
The Km of `B5 (TRIB2)` is reported as 660 µM (Nc1ncnc2c1ncn2[C@@H]1O[C@H](COP(=O)(O)OP(=O)(O)OP(=O)(O)O)[C@@H](O)[C@H]1O; pH 7.4, 30 °C, NaCl 100 mM, no added metal).
`LodA (Marinomonas mediterranea, UniProt F2JXJ3)` gave a Km of 3.2 µM (NCCCC[C@H](N)C(=O)O; pH 7.5, 25 °C, with: O2).
With `B6 (COMT)` the Km was 1.6 µM (O=c1oc2c(O)c(O)ccc2cc1-c1nc2ccccc2s1; human liver S9; pH 7.4, 37 °C).
For `AARS2 (Homo sapiens, UniProt Q5JTZ9)`, the Km was 5680 µM (C[C@H](N)C(=O)O; pH 8, 37 °C, KCl 20 mM, with: ATP 4 mM).
For `B7 (Mj-MAT W387F)`, the Km was 310 µM (CSCC[C@H](N)C(=O)O; 55 °C, with: ATP 2.5 mM, methionine 0.05-1 mM).
`LovD A190T/A86V/C40A/C60N/D12G/G275S (Aspergillus terreus)` has a Km of 700 µM (CCC(C)(C)C(=O)SCCC(=O)OC; 25 °C, 10% DMSO, with: 2 mM MJA).
